# Results collected from several papers.
# Parts stem from different laboratories: compare values within a part only. Positions count from the first letter of the parent shown.

# Sample 1
# Molecule: B1 (TRIM34 RING domain)
# Method: yeast two-hybrid
# Sample: yeast
# Setting: mostly zero background
# Relative to: not given
# Reading: higher = stronger interaction
# B1: TRIM34 RING domain (UniProt Q9BYJ4); chain ILLNVQEEVTCPICLELLTEPLSLDCGHSLCRACITVSNKEAVTSMGGKSSCPVCGISYSFEHLQA
target,lacZ reporter activity
BIRC6 UBC core domain (UniProt Q9NR09),0
UBE2O UBC core domain (UniProt Q9C0C9),0
UBE2T UBC core domain (UniProt Q9NPD8),0
UBE2D1 UBC core domain (UniProt P51668),0
UBE2B UBC core domain (UniProt P63146),0
UBE2G1 UBC core domain (UniProt P62253),0
UBE2J2 UBC core domain (UniProt Q8N2K1),0
UBE2L3 UBC core domain (UniProt P68036),0
UBE2S UBC core domain (UniProt Q16763),0
UBE2C UBC core domain (UniProt O00762),0

# Sample 2
# Target: CCND3, cyclin fold, Cln2 fusion (human)
# Method: yeast growth competition, sequencing
# Sample: yeast
# Setting: weak parent motif
# Relative to: not given
# Reading: higher = stronger binding
# Starting sequence: BRCA2 docking peptide (human); CKKRRALDFLSRL
Change,normalised enrichment score
CKKRRALDLLSRL [F9L],0.0874
CKKRRALAFLSRL [D8A],0.123
CKKRKALDFLSRL [R5K],-0.223
CKKRRALDFLSAL [R12A],0.226
CKKRAAADFLSRL [R5A L7A],0.412
CKKRRALDFLSRA [L13A],0.146
CKKRAALDFLSRL [R5A],0.101
CKKRRALDALSRL [F9A],0.149
CKKRRALDFASRL [L10A],0.207

# Sample 3
# Target: Hepatocyte nuclear factor 3-alpha (Foxa1, Mus musculus, UniProt P35582, residues 1-468, full length assumed)
# Method: EMSA with sequencing
# Form: double-stranded DNA, one strand shown
# Sample: in vitro
# Tested at: 10 and 20 nM
# Setting: whole designed probe, mean of two concentrations, ends assumed
# Relative to: negative control set to 0
# Reading: higher = stronger binding
# Shared flanks, not repeated: GTGAGCGGTGCCCATTGATGGGGAAC … TTTCACTGGGATCGTGGGGAC
# Residues (chain): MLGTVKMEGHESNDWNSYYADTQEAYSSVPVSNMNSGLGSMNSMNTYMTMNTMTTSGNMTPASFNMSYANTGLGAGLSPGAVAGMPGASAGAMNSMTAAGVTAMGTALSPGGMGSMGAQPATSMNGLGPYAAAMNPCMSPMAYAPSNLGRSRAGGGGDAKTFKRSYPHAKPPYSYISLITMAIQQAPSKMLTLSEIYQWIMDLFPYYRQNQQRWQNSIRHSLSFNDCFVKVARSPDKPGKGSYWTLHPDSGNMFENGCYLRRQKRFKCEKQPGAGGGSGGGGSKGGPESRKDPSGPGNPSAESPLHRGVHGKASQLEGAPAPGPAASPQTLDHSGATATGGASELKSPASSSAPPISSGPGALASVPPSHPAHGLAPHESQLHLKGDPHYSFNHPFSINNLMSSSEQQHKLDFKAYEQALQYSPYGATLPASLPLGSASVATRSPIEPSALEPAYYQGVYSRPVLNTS
Oligonucleotide,normalised bound fraction [ratio]
ATCTTCCCCCTCTTCCTTGCCCCACCAGCTCACCTTCCCGGGTTATTTGCAGATAGGAAAATAAATAAAGCCGGCATTCGTTAACCCTCTTCACGCGCATACTGCTGTTTGCTCTGGATCTAACATGGTCCTTTGGGATGAATCATGTCCGGGAGAGCAAAGCACCGTGTCAGGGCCATGATCCGGGGTGGCC,0.349
CTGAATCCGCCTTCTGTCCCACACCCAACTCCTGCTCTGCCTCTGCAGCCACCTGCAGGCTCTCAGCGCACTCCTCAAAATCTATTTCTGCTGTGTTTACCCAACACCACCTGCAGGAAACTCCCTTGAAATTCCCAGGCCTTTCCCAGAGTTCCTCAGTTCCTTTTCTTAAAATTCCTGCTGTCCCCAAAGA,0.229
TATCATGAATTTGCACTATGACAAATCAACTTTCAAGCATTTTCTTGACAGTTTTAGAGGTTTTGCCAGCTTTTGACATACATACAGACAGAGTAATCTAGGGGAAAAAAGAAAACTTAGTGAGCACGTAAGTCATGGAGTTTGAGCTCCAATAAAAATATTCATTAAAGAGGAAGAATAAGGTGGGGGGTGG,0.00912
ATCTTCCCCCTCTTCCTTGCCCCACCAGCTCACCTACGGGGGTTATTTGCACAAAGGAAAATAAATAAAGCCGGCATTCGTTAACCCTCTTCTGGCGCAAACTGCTGTTTGCTCTGCATCTAACATGGTCCTTACGCGAGGCGTGGCTCCGGGAGAGCAAAGCACCGTGTCAGGCGCATGATCCGGGCTCGCC,0.391
TTTTTCATGTATAAATATATAATTTTATTTAATATTTAGATTTTATTCTTTTCTCTGAATTCATTATATACTACAAAAGTTATGGCATCTCAATGTAAACACAGATGCAGAAGAAAAGAGTTCTAATACCTTTATTACCTAAGAAGATAAAATATCATAGATGTGTGGAATTAAAAGAAAATTATCAAAGTCC,0.35

# Sample 4
# Target: CREB3L2, bZIP domain (human)
# Method: DHFR protein complementation
# Sample: yeast
# Setting: single substitutions, most at no-binding floor
# Relative to: wild-type JUN-FOS pair
# Reading: higher = stronger binding
# Starting sequence: JUN, bZIP domain (human); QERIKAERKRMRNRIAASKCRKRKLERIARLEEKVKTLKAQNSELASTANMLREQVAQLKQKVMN; partner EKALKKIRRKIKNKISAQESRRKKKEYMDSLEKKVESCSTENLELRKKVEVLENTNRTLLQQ
Change,binding fitness
L59H,-1.36 natural log
T48R,-1.15 natural log
T48M,-1.61 natural log
K39F,-1.58 natural log
S43H,-1.49 natural log
Q41I,-1.41 natural log
L45A,-1.54 natural log
E44C,-1.53 natural log
Q41G,-1.5 natural log
S43G,-1.37 natural log
R30G,-1.42 natural log
S43I,-1.34 natural log
L52C,-1.56 natural log
S43N,-1.4 natural log
N42V,-1.45 natural log
T48W,-1.41 natural log
A40N,-1.47 natural log
V56E,-1.52 natural log
S47M,-1.41 natural log
I28E,-1.58 natural log
L45S,-1.57 natural log
K36P,-1.54 natural log
S43Q,-1.26 natural log
A57H,-1.45 natural log
L31Q,-1.28 natural log

# Sample 5
# Target: Histone acetyltransferase KAT6A, winged helix 2, GST fusion (KAT6A, Homo sapiens, UniProt Q92794, residues 85-181)
# Method: protein binding microarray
# Form: double-stranded DNA, one strand shown
# Sample: in vitro
# Tested at: not given
# Setting: 8-mer, flanks averaged, mean of 2 arrays, mostly near background
# Relative to: not given
# Reading: higher = stronger binding
# Residues (chain): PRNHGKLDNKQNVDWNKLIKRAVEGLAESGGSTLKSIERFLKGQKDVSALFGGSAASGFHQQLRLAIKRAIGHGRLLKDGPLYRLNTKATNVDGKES
Oligonucleotide,E-score
ACGGCGAG,0.176
ACAGTGCC,-0.0207
AAGCCCCT,-0.0214
GGGAACAA,0.034
CTAATAAC,-0.0547
GGGGTCAC,0.00148
GCTATTCC,-0.0304
GACGCCTA,0.0143
GACAAAAC,-0.000825
CATAAAAA,0.131
AGAATACG,-0.0618
CGTAGGCC,-0.0278
CATCCCAG,-0.0171
CTGGCAAC,0.0119
GTACGTAA,-0.355
TAAACATA,-0.0196
ACGCGCTA,-0.119
CCTTTGAG,-0.041
CAGAGCAC,0.119
ACACGTAC,-0.226

# Excerpt of the above (sample 4):
Change,binding fitness
L52C,-1.56 natural log
S43N,-1.4 natural log
N42V,-1.45 natural log
T48W,-1.41 natural log
A40N,-1.47 natural log
V56E,-1.52 natural log
